Measured values gathered from unrelated publications.
Numbered parts are unrelated; each lists some results of a single study. Values joined by “and” are separate records of one study, mostly repeats; a detail may differ.
Sequence of UniProt P35372 (whole entry, looked up): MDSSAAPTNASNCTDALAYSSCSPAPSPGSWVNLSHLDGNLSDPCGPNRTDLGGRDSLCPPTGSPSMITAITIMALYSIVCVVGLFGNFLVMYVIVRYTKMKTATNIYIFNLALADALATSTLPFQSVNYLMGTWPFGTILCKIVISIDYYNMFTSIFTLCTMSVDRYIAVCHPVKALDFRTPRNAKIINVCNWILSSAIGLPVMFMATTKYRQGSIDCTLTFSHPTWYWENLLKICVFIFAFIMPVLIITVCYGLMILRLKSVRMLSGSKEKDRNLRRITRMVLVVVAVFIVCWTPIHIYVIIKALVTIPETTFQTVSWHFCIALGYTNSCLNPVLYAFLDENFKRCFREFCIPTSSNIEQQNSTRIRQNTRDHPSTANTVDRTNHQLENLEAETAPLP

Study 1
SMILES: CC(=O)N[C@@H](Cc1c[nH]c2ccccc12)C(=O)N[C@@H](CCC(=O)C=[N+]=[N-])C(=O)OC(C)C
Route: subcutaneous
Time: 5 days
Endpoint: metabolite peak intensity
UPLC-MS/MS, measured: 3-(3-hydroxyphenyl)propionate sulfate; C57BL/6 CES1-/- mice, EL4 tumour, EL4 tumour; 0.3 mg/kg/day DON equivalent: 92800 a.u. and 74700 a.u. and 124000 a.u. and 42400 a.u. and 118000 a.u.
UPLC-MS/MS, measured: hydroxyproline; EL4, C57BL/6 CES1-/- mice, EL4 tumour, tumour; 0.3 mg/kg/day DON equivalent, normalised to tissue mass; higher = more metabolite: 1.17e+08 a.u. and 2.17e+08 a.u. and 2.41e+08 a.u. and 1.64e+08 a.u. and 1.8e+08 a.u. and 1.53e+08 a.u.
LC-MS/MS, measured: cysteine sulfinic acid; C57BL/6 CES1-/- mice, EL4 tumour; 0.3 mg/kg DON equivalent: 368000 a.u. and 676000 a.u. and 588000 a.u. and 182000 a.u. and 603000 a.u. and 489000 a.u.
UPLC-MS/MS, measured: 5-methylthioadenosine; C57BL/6 CES1-/- mice, EL4 tumour, EL4 tumour; 0.3 mg/kg/day DON equivalent: 4.47e+07 a.u. and 2.6e+07 a.u. and 2.64e+07 a.u. and 4.74e+07 a.u. and 4.21e+07 a.u. and 4.52e+07 a.u.
UPLC-MS/MS, measured: 5-methylcytidine; C57BL/6 CES1-/- mice, EL4 tumour, EL4 tumour; 0.3 mg/kg/day DON equivalent: 1.17e+06 a.u. and 1.39e+06 a.u. and 814000 a.u. and 1.23e+06 a.u. and 1.24e+06 a.u.
UPLC-MS/MS metabolomics, measured: gluconate; C57BL/6 CES1-/- mice, EL4 tumour, EL4 tumour; 0.3 mg/kg/day DON equivalent, normalised to tissue mass: 6.7e+06 a.u. and 9.92e+06 a.u. and 9.79e+06 a.u. and 9.22e+06 a.u. and 8.61e+06 a.u.
UPLC-MS/MS, measured: imidazole lactate; EL4, C57BL/6 CES1-/- mice, EL4 tumour, tumour; 0.3 mg/kg/day DON equivalent, normalised to tissue mass; higher = more metabolite: 2.44e+06 a.u. and 1.56e+06 a.u. and 705000 a.u. and 2.24e+06 a.u. and 1.29e+06 a.u. and 1.72e+06 a.u.
UPLC-MS/MS metabolomics, measured: guanine; C57BL/6 CES1-/- mice, EL4 tumour, EL4 tumour; 0.3 mg/kg/day DON equivalent, normalised to tissue mass: 1.6e+06 a.u. and 1.27e+06 a.u. and 1.26e+06 a.u. and 904000 a.u. and 779000 a.u. and 939000 a.u.

Study 2
Organism: Sarcocystis neurona
Read-out: parasite activity
Concentration: 10 µM
Time: 96 h
Endpoint: activity class
COc1cccc2c1C(=O)c1c(O)c3c(c(O)c1C2=O)C[C@@](O)(C(=O)CO)C[C@@H]3O[C@H]1C[C@H](N)[C@@H](O)[C@H](C)O1: inactive
CC/C(=C(\c1ccccc1)c1ccc(OCCN(C)C)cc1)c1ccccc1: inactive
CC(=O)O[C@@]12CO[C@@H]1C[C@H](O)[C@@]1(C)C(=O)[C@H](O)C3=C(C)[C@@H](OC(=O)[C@H](O)[C@@H](NC(=O)OC(C)(C)C)c4ccccc4)C[C@@](O)([C@@H](OC(=O)c4ccccc4)[C@H]21)C3(C)C: inactive
CCOC(=O)C1=C(C)NC(C)=C(C(=O)OCC)C1c1ccccc1/C=C/C(=O)OC(C)(C)C: inactive
CN(C)CC[C@@H](c1ccc(Cl)cc1)c1ccccn1: inactive
C#C[C@]1(O)CC[C@H]2[C@@H]3CCc4cc(OC)ccc4[C@H]3CC[C@@]21C: inactive
CC(=O)OCC(=O)[C@@]12OC3(CCCC3)O[C@@H]1C[C@H]1[C@@H]3CCC4=CC(=O)C=C[C@]4(C)[C@@]3(F)[C@@H](O)C[C@@]12C: inactive
O=C(O)c1cc(-c2ccc(F)cc2F)ccc1O: inactive

Single results of other studies
Concentration: 10 µM
CCC(=O)N[C@@H]1CC[C@H](C(=O)N(C)c2ccc(-c3nc4ccccc4o3)cc2)C1  inhibition (OPRM1 (Homo sapiens, UniProt P35372); binding, radioligand binding): 14%
CCCC(C)C1(CC)C(=O)NC(=O)NC1=O (stereo not drawn)  parasite load (Plasmodium berghei; Huh-7, liver stage; 24 h; reference: control): 91.7%

For quick reference, copied from above (study 2):
CC(=O)O[C@@]12CO[C@@H]1C[C@H](O)[C@@]1(C)C(=O)[C@H](O)C3=C(C)[C@@H](OC(=O)[C@H](O)[C@@H](NC(=O)OC(C)(C)C)c4ccccc4)C[C@@](O)([C@@H](OC(=O)c4ccccc4)[C@H]21)C3(C)C: inactive
CC(=O)OCC(=O)[C@@]12OC3(CCCC3)O[C@@H]1C[C@H]1[C@@H]3CCC4=CC(=O)C=C[C@]4(C)[C@@]3(F)[C@@H](O)C[C@@]12C: inactive
